# Experimental data collected from several papers.
# Each numbered part is a random draw from the data of one study; scales do not carry over between parts. Substitutions count along the parent as printed.

# Set 1
# Target: Histone acetyltransferase KAT6A, both winged helices, GST fusion (KAT6A, Homo sapiens, UniProt Q92794, residues 1-181)
# Method: protein binding microarray
# Molecule type: double-stranded DNA, one strand shown
# Sample: in vitro
# Concentration: not given
# Setting: 8-mer, flanks averaged, mean of 2 arrays, mostly near background
# Relative to: not given
# Direction: higher = stronger binding
# Residues (chain): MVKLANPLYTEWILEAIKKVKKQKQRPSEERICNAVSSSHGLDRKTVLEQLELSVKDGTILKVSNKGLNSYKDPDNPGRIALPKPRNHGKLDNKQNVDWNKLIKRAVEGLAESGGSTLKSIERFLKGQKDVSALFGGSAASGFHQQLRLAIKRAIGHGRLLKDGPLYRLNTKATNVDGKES
Oligonucleotide,E-score
ACCCTTAT,-0.0329
AAGATGTC,-0.0867
GTAGGGGA,-0.171
CAATCGTA,0.036
ACCCGTGG,0.175
ACACAAAT,-0.0684
AAACCTAA,-0.0233
CCACGACG,0.02
ACTGTCAC,-0.0773
CACTAACC,-0.081
AAATAAGT,-0.167
GCCTCGCC,0.0234
CAGCTGAC,0.0821
AGATCACC,-0.00304
ATATAGCG,0.154
CTACTCCC,-0.051
CATTGCCC,-0.0656
CACCGTGG,-0.0462

# Set 2
# Target: Interferon regulatory factor 3, full length, phosphomimetic (IRF3, Homo sapiens, UniProt Q14653, residues 1-427, S386D/S396D/S398D/S402D/T404D/S405D)
# Method: protein-binding microarray
# Molecule type: double-stranded DNA, one strand shown
# Sample: in vitro
# Concentration: 2540 nM top
# Setting: 60-bp whole probe
# Added: salmon DNA 0.4 mg/ml
# Relative to: random background probes
# Direction: higher = stronger binding
# All sequences stand within: GCCTAGCAC … GTCTTGATTCGCTTGACGCTGCTG
# Construct (chain): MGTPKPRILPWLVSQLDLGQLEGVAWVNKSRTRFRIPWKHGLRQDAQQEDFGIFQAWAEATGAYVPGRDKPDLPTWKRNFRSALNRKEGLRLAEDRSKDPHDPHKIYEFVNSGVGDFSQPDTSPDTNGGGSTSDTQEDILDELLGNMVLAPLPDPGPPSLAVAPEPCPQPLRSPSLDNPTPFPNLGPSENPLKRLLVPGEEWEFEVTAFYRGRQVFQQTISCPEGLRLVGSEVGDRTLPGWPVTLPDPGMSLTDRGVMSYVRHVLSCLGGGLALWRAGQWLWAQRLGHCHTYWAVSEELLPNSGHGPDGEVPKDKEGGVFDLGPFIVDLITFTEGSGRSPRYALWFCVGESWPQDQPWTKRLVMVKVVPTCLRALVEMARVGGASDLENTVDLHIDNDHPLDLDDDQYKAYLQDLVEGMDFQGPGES
Oligonucleotide,fitted relative affinity [z-score]
TTAGAACTGGGGACTAGATTAGTGCTA,-0.746
TTAGGTCTCGGTTTCGGTCAGTGCTAG,4.12
GACGGACTGCTTTTCCTGATGTGCTAG,-0.184
TTAGGTAACGGTTTCGGTTAGTGCTAG,4.76
TTCGGTTTCGGTATCGGTTAGTGCTAG,8.7
TGAGAACTGAGACTGGATTAGTGCTAG,-0.466
GGACGAGCGACGGTGACACTGTGCTAG,-1
TTAGATATCAGACTGGGTTAGTGCTAG,0.0464
GGGGATAAACTTAATGGATGGTGCTAG,-0.562
GACTGACTGGGGTATCGGGACGTGCTA,-0.473
TCAGGCTTCTATGTAGTACTGTGCTAG,-0.76
GGCGATTTCGGGTATCGAGACGTGCTA,1.64
TCAGTTTCTCCTTTGTAACTGTGCTAG,3.29
CACGGTATCGACACTGGGGACGTGCTA,0.208
TTAGGTATCGTCTTTCGGTTAGTGCTA,1.41
TCATTTTTATCAAATGTGACTGTGCTA,1.31
GGCCCTGTCCTTTTCTTTACGTGCTAG,1.8
TCATTTTTGCTTACGATACTGTGCTAG,1.58
TTAGGTTTGGACTTTCGGTTAGTGCTA,1.06
GACGGTATCTGTTTCGGGACGTGCTAG,4.8

# Set 3
# Target: ABI1, truncated, D143A, DHFR fusion (Arabidopsis thaliana)
# Method: DHFR PCA, deep sequencing
# Sample: yeast
# Setting: methotrexate growth selection, single substitutions
# Added: (+)-ABA 0 µM
# Relative to: wild-type fitted maximum
# Direction: higher = stronger binding
# Starting sequence: PYL1, truncated, DHFR fusion (Arabidopsis thaliana); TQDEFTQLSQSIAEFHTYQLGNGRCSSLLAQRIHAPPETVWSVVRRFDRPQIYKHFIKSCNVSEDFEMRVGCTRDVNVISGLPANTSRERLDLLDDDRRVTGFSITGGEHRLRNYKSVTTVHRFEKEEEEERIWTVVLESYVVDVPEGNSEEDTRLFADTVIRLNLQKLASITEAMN; partner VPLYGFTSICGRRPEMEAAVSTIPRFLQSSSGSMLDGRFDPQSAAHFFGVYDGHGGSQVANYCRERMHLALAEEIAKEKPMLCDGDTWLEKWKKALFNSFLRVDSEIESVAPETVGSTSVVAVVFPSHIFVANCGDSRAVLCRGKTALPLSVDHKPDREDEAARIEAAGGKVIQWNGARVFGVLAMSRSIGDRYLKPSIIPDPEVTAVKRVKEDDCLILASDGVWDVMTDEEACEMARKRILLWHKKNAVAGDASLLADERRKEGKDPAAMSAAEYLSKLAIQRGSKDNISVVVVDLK
Substitution,relative binding score
L20A,37.9%
D97Y,1.87%
S150H,9.42%
R155I,-1.83%
K116H,9.12%
D95R,-6.07%
D75G,-0.00823%
A175C,2.99%
F56N,-1.38%
V121Y,-7.28%

# Set 4
# Target: RNA binding protein fox-1 homolog 2, RRM domain, GST-SBP tag (RBFOX2, Homo sapiens, UniProt O43251-10, residues 100-194)
# Method: RNA Bind-n-Seq
# Molecule type: RNA
# Sample: in vitro
# Concentration: 365 nM
# Setting: natural RNA segment, single round, ends assumed
# Relative to: no-protein control
# Direction: higher = stronger binding
# All sequences stand within: GGGAGUUCUACAGUCCGACGAUC … UGGAAUUCUCGGGUGCCAA
# Residues (chain): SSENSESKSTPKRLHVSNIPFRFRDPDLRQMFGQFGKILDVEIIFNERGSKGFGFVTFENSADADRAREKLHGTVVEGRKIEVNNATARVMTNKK
Oligonucleotide,RBNS enrichment (R)
CUGAGCUUUGGUUUUUAGAAAUAAAGUGCAUGAAUUGCUGCUAUGCUGUAUCCUAGUAUCCCAGUGAAACUCUGAGUUGGAAUGAUUCCCUCUGGUCCUGCAUAUGCAGA,20
AAAUCAAGAAGCUUAAAACUGCACCUGUGGAGUGCCACCCGAGCCAACACAUCAAAUAAUGCAUUGAAUAUUUAUGAAAAAGUAUAUUUAUACUCUCAGAUAGUUUGCUC,0.874
UACAUUAGUUUUUACACUAAAACUUUACAAGAUAAAAUUGGACUUCAUUUAGUAUCUUUUUAACAGAAUUACUUGGAAUAAUGAGAUACAAUAAUCAUAUCUCUUUUGAC,0.358
AGCCCCACCAUGCAACUUCCUUUGACUUUCUGUGUACCACUGGGAUAGAGGAAUCAAGAGGACAAUCUAGCUCUCCAUACUUUGAACAACCAAAUGUGCAUUGAAUACUC,0.562
CUGUGGCUCCCUCUCUCCUGGACUGGUUAUCUUGUUAUUAUUGUUAAUAAUAAUUAUUAUUAUUAUUUUCCUUCCAUGCUCCCAACUCCCUUCUGCUUGUCCCAAAUCCG,2.87
UCAGCUCUAUUACGACCCUUCUCAUCCCUAUAGAAGAGGUUGCUAAGUAUCCACUUCCCUUUCUAUGAGCCCCAGCUGCUAUUUUGAGACAUCCUGGGGAAAUCGAGCAG,0.383
UCAUGUUCCUUAGACCUGAUUUGUUUUGAUAUUUUACUGCCUUUCCUUUUAAUUUUUGUUUGAAUGAGAAAAGUUUAAUACAACAGGUGUCCAGAAUACUUGCAGUAUAA,2.41
UGUCAACCCAGACAACUCAGUCCUUUCAUGUAAAUUUUUGGGCAAGAGAAGUCUGCUUUGACUGCCUUGCCUGACCAAAUUAAAUAAAUAGUUGCCAGAUCUCUACUUUU,0.277
CCUUUGUGCUCCACUUAAACCAGAUGUGUUGCAGCUUUCCUGACAUGCAAGGAUCUACUUUAAUUCCACACUCUCAUUAAUAAAUUGAAUAAAAGGGAAUGUUUUGGCAC,0.35
UGCUAGAAUCACUGCCGCUGUGCUUUCGUGGAAAUGACAGUUCCUUGUUUUUUUUGUUUCUGUUUUUGUUUUACAUUAGUCAUUGGACCACAGCCAUUCAGGAACUACCC,0.709
AAUUGUACCACCACUUGGUUUGGACUACAAAUUAAACAUUGGCCCUCGCGGAGCUUGAGUUCUUCAUGGUAGAAAACAGUUGCAUUUCCGUAAAGGGUGGAGGGCUUGAG,0.532
GGUUCUUCCUAGGGUGGCCUUGGCUCCCUGAAGGAAUCUGAAAUGCUGACCCUGUCACAACCUCCCAGCACAGCUUUGGAAUGAGACAUCAGCCUGGCCUCCAGCAGAGC,0.223

# Set 5
# Target: Sal-like protein 4, full length isoform B (SALL4, Homo sapiens, UniProt Q9UJQ4-2, residues 1-616)
# Method: universal PBM
# Molecule type: double-stranded DNA, one strand shown
# Sample: in vitro
# Concentration: not given
# Setting: 8-mer, flanks averaged, mean of replicates
# Direction: higher = stronger binding
Oligonucleotide,E-score
TCACTAAA,0.0179
AACAGGTT,0.175
CATGAGCA,-0.0755
CCATTCGC,-0.254
AACCGTCT,-0.167
AATCGGTG,-0.00466
GCTAGTTA,0.0858
AATGCGGA,-0.0322
CTGCGTCC,-0.298
CCGCCTCC,-0.193
GGGCGGTA,-0.221
AGGAGTCA,0.0684
CCTTACCC,-0.191
CACTTTAA,0.147
AAGTGACC,-0.176
AACCTCTC,-0.0427
CTCCGTTC,-0.129
CTTACTTC,0.0874
AGTGAAAA,0.18
CATGCTGC,-0.218

# Set 6
# Target: BATF2, bZIP domain (human)
# Method: DHFR protein complementation
# Sample: yeast
# Setting: single substitutions, most at no-binding floor
# Relative to: wild-type JUN-FOS pair
# Direction: higher = stronger binding
# Starting sequence: JUN, bZIP domain (human); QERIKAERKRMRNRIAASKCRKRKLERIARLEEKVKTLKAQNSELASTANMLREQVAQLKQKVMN; partner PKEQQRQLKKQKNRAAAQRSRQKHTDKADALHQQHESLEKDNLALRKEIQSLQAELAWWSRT
Substitution,binding fitness
V56W,-1.42 natural log
S43Q,-0.123 natural log
A49S,-1.02 natural log
S47N,-0.175 natural log
A29T,-0.366 natural log
E33K,-0.601 natural log
L38S,-0.944 natural log
L31E,-0.826 natural log
S43V,-0.304 natural log
N42M,-1.25 natural log
E54D,-0.497 natural log
A29F,-0.6 natural log
S43G,-0.331 natural log
R30A,0.0374 natural log

# Set 7
# Target: Transcriptional repressor CTCF (CTCF, Homo sapiens, UniProt P49711, residues 1-727, full length assumed)
# Chain of UniProt P49711 (whole entry, looked up): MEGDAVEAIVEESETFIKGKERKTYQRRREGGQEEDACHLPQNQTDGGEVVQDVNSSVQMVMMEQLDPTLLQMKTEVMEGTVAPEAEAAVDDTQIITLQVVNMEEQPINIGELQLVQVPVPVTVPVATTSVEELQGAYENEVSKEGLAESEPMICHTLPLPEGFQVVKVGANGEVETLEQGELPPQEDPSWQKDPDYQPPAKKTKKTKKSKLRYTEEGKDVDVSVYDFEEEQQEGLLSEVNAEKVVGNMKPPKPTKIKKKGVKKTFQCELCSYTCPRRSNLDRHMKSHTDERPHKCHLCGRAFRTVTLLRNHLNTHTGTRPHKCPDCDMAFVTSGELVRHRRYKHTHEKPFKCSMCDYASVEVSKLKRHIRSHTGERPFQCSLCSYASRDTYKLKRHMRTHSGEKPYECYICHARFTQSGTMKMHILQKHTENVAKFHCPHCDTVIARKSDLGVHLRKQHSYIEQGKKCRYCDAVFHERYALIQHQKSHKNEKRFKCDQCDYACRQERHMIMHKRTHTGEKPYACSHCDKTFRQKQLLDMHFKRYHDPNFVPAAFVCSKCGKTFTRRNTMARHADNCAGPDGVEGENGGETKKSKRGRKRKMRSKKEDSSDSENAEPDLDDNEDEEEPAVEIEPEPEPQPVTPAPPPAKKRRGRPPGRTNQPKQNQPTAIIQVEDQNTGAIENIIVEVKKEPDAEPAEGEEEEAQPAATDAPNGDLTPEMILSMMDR
# Method: protein-binding microarray
# Molecule type: double-stranded DNA, one strand shown
# Sample: in vitro
# Concentration: not given
# Setting: k-mer, scored over probes, only values ≥0.25
# Direction: higher = stronger binding
Oligonucleotide,E-score
AATTTTCA,0.282
ATTTAACC,0.252
ATTGCGCG,0.361
AATAAAAC,0.365
ACACTAGG,0.286
CATTTGTA,0.264
CATCACCA,0.278
CATTTTCC,0.253
ACAAATTA,0.31
ATAGCGCC,0.393
AGTATACC,0.304
AGTTTATA,0.327
ATAACGTC,0.338
ATATAATC,0.295
CCGCAAGG,0.277
ATGTGCGC,0.368

# Set 8
# Target: CCND1, cyclin fold, Cln2 fusion (human)
# Method: yeast growth competition, sequencing
# Sample: yeast
# Setting: weak parent motif
# Relative to: not given
# Direction: higher = stronger binding
# Starting sequence: FZR1 docking peptide (human); QDYERRLLRQIVI; partner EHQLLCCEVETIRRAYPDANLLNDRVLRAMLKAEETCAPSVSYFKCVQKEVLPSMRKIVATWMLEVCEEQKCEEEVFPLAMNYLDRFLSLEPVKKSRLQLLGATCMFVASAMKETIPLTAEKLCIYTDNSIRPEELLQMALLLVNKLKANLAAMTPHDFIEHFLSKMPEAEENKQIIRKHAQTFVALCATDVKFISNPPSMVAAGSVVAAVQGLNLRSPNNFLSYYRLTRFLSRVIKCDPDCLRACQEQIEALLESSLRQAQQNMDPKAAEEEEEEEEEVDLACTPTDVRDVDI
Substitution,normalised enrichment score
D2A,-0.0147
I13A,-0.464
L8F,-0.212
R5K L8F,0.0319
R5A L7A,0.191
R5A,-0.000856
L8A,-0.281
Y3A,0.0189
Q1A,0.0557
L7A,0.0586

# Mixed results
Molecule,target,test,test system,conditions,scale,measurement,result
"PhoQ, residues 284 288 289 292 302 303 AGCYAI","PhoP, residues 12 14 15 18 19 QWHVF (Escherichia coli, UniProt P23836)","Sort-seq, measured: YFP reporter",E. coli,"PhoQ-PhoP variant library, added: 10 µM Mg2+","relative to: high Mg2+ state, higher = stronger signaling",fold induction,0.822

# Some of these lines once more (set 1):
Oligonucleotide,E-score
CATTGCCC,-0.0656
ACCCTTAT,-0.0329
AGATCACC,-0.00304
ACTGTCAC,-0.0773
GTAGGGGA,-0.171
ACCCGTGG,0.175
ATATAGCG,0.154
CACCGTGG,-0.0462
ACACAAAT,-0.0684
CAATCGTA,0.036
CCACGACG,0.02
AAATAAGT,-0.167
AAGATGTC,-0.0867
CACTAACC,-0.081
CAGCTGAC,0.0821
CTACTCCC,-0.051
